Assay results collected from several papers.
Numbered parts are unrelated; each lists some results of a single study.

Series 1 — technique: universal PBM; molecule type: double-stranded DNA, one strand shown; medium: in vitro; concentration: not given; direction: higher = stronger binding
Target: Sal-like protein 4, full length isoform B (SALL4, Homo sapiens, UniProt Q9UJQ4-2, residues 1-616)
Setting: 8-mer, flanks averaged, mean of replicates
Target sequence (chain): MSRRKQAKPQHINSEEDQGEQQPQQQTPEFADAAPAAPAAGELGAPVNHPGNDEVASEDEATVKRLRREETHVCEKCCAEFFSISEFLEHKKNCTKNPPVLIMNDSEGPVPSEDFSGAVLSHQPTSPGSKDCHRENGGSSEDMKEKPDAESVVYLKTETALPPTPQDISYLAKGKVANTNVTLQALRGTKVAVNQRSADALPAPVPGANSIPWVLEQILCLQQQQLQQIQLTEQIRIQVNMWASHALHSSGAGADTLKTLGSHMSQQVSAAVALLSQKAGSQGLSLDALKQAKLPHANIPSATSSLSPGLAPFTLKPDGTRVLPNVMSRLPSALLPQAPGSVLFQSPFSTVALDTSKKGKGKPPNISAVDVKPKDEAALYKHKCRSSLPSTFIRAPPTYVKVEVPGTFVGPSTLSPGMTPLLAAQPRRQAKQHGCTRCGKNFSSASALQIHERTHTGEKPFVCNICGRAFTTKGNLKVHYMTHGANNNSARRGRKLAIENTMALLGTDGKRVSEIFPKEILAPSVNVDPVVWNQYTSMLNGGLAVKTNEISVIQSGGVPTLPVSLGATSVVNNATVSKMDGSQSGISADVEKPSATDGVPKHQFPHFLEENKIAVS
`TGCCATAA` gave an E-score of 0.161.
For `ACTGTTAT`, the E-score was 0.291.
With `GCCGGCGA` the E-score was -0.364.
With `CAATTGGC` the E-score was 0.119.
With `GCCGGCAA` the E-score was -0.11.

Series 2 — technique: aptamer microarray, sandwich; molecule type: DNA with 2'F-ANA; medium: in vitro; concentration: 200 nM; with: Cy3 exosite-II aptamer, 400 nM; direction: higher = stronger binding; strand: GGTTGGTGTGGTTGG
Target: Prothrombin, mature alpha-thrombin (F2, Homo sapiens, UniProt P00734)
Setting: whole 15-mer aptamer, many near background
`2'F-ANA at 2 3 4 5 6 8 9 11 12 14`: “mean fluorescence intensity” 50.1 a.u.
For `2'F-ANA at 3 5 6 7 9 11 12 13`, “mean fluorescence intensity” read 169 a.u.
For `2'F-ANA at 1 3 4 5 9 10 11 12 13 14`, “mean fluorescence intensity” read 51.6 a.u.
`2'F-ANA at 2 9 12 15`: “mean fluorescence intensity” 679 a.u.
For `2'F-ANA at 1 2 3 5 6 7 8 9 11 12 13 14`, “mean fluorescence intensity” read 48.7 a.u.
Under “mean fluorescence intensity”, `2'F-ANA at 2 3 5 8 9 13 14 15` is recorded as 55.7 a.u.

Series 3 — technique: protein binding microarray; molecule type: double-stranded DNA, one strand shown; medium: in vitro; concentration: not given; reference: not given; direction: higher = stronger binding
Target: Histone acetyltransferase KAT6A, winged helix 1, GST fusion (KAT6A, Homo sapiens, UniProt Q92794, residues 1-85)
Setting: 8-mer, flanks averaged, mean of 2 arrays, mostly near background
Target sequence (chain): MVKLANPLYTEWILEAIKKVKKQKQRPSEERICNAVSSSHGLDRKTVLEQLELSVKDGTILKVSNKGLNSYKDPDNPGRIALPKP
For `ATCCTAAA`, the E-score was -0.099.
`ATCCAGAG` gave an E-score of -0.217.
For `CAGAGCTC`, the E-score was -0.0302.
`CATATCCC` gave an E-score of 0.0198.
The E-score of `GCGCCTGA` is reported as 0.104.

Further values, each from its own experiment
For `PhoQ, residues 284 288 289 292 302 303 TLASMF`, the fold induction was 1.22 (PhoP, residues 12 14 15 18 19 LFHKL (Escherichia coli, UniProt P23836); Sort-seq, measured: YFP reporter; E. coli; PhoQ-PhoP variant library, with: 10 µM Mg2+; reference: high Mg2+ state, higher = stronger signaling).

A few entries again (series 1):
With `CAATTGGC` the E-score was 0.119.
For `ACTGTTAT`, the E-score was 0.291.
